Measurements collected from several papers.
Numbered parts are unrelated; each lists some results of a single study.

Study 1 — technique: RNA Bind-n-Seq; form: RNA; matrix: in vitro; concentration: 200 nM; notes: whole 134-nt RNA, ends assumed; added: 150 mM LiCl; relative to: input library; reading: higher = stronger binding; measurement: log2 enrichment; each molecule: 7-deaza-guanosine replaces G
Target: Ras GTPase-activating protein-binding protein 1, full length (G3BP1, Homo sapiens, UniProt Q13283)
Chain of UniProt Q13283 (whole entry, looked up): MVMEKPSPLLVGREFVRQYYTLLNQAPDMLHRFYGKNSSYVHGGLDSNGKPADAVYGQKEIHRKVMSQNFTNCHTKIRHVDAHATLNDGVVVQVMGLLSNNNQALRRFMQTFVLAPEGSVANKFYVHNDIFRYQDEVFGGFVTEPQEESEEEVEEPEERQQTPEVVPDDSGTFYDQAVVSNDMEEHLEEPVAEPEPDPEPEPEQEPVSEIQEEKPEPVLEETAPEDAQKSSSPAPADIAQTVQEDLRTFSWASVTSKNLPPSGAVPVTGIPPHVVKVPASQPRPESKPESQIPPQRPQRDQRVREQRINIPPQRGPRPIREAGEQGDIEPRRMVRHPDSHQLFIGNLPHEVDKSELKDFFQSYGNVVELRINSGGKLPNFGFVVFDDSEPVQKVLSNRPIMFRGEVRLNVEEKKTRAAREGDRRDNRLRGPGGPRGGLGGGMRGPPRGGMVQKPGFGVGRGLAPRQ
Constant ends, left off below: GGGAGUUCUACAGUCCGACGAUC … UGGAAUUCUCGGGUGUCAAGG
Oligonucleotide = UCCUGUGCUACACAUCGUAUGUACCGAAUCGGGGUUUUUGGGGAAAAAGGGGUUUGGGGAAAGUAUUAUGUUACGCCGUUCGGAUCUGCA; result = -0.803
Oligonucleotide = UCCUGUGCUACACAUCGUAUGUACCGAAUCGGCCCCCGGGGCCCCCGGGGCCCCCGGGGAAAGUAUUAUGUUACGCCGUUCGGAUCUGCA; result = -2.18
Oligonucleotide = CAAGUCCUGUGCUACACAUCGUAUGUACCGAAUCGGGGUUUGGGGUUUGGUUUGGAAAGUAUUAUGUUACGCCGUUCGGAUCUGCACUUC; result = -0.305
Oligonucleotide = CCUGUGCUACACAUCGUAUGUACCGAAUCGGGGUUUUUUGGGUUUUUUGGGGUUUUUUGGAAAGUAUUAUGUUACGCCGUUCGGAUCUGC; result = 1.09
Oligonucleotide = AGUCCUGUGCUACACAUCGUAUGUACCGAAUCGGGAGGGUUUUUGGGUUUUUUUGGGAAAGUAUUAUGUUACGCCGUUCGGAUCUGCACU; result = -0.585
Oligonucleotide = GCAGGAAGUAAAAACAAAUAGAAAUGCUUCGGAUAGUGGCAGGGGUGGGGGUUGCUAAGGAAAGGGUGGGAUGGGAGUGGGUAAAGAGUU; result = -0.266
Oligonucleotide = UCCUGUGCUACACAUCGUAUGUACCGAAUCGGGGAAAAAGGGGAAAAAGGGGAAAGGGGAAAGUAUUAUGUUACGCCGUUCGGAUCUGCA; result = 0.0563
Oligonucleotide = CCUGUGCUACACAUCGUAUGUACCGAAUCGGGAAAAAAAGGGUUUUUUUGGGAAAAAGGGAAAGUAUUAUGUUACGCCGUUCGGAUCUGC; result = -1.65
Oligonucleotide = AAGUCCUGUGCUACACAUCGUAUGUACCGAAUCGGGGUGGGGUUUUUGGGGUGGGGAAAGUAUUAUGUUACGCCGUUCGGAUCUGCACUU; result = 0.121
Oligonucleotide = UGCUGUGUCACCGGGAACGCAAAGGCUGGGAAGAAGGCCCUUCUCAAAAUGGACUGGUGUUGCAGGGUGAGAAGCUGCCCCCUGACUUCA; result = -0.231
Oligonucleotide = GCAGGACGUAAAAACAAAUGGAAAUGCUUCGGAUAGUGGCAGGGGUGGGGGUUGCUAAGGAAAGGGUGGGAUGGGAGUGGGUAAAGAGUU; result = -0.457

Study 2 — technique: universal PBM; form: double-stranded DNA, one strand shown; matrix: in vitro; concentration: 600 nM; reading: higher = stronger binding; measurement: E-score
Target: Sal-like protein 4, full length isoform A (SALL4, Homo sapiens, UniProt Q9UJQ4, residues 1-1053)
Chain of UniProt Q9UJQ4 (whole entry, looked up): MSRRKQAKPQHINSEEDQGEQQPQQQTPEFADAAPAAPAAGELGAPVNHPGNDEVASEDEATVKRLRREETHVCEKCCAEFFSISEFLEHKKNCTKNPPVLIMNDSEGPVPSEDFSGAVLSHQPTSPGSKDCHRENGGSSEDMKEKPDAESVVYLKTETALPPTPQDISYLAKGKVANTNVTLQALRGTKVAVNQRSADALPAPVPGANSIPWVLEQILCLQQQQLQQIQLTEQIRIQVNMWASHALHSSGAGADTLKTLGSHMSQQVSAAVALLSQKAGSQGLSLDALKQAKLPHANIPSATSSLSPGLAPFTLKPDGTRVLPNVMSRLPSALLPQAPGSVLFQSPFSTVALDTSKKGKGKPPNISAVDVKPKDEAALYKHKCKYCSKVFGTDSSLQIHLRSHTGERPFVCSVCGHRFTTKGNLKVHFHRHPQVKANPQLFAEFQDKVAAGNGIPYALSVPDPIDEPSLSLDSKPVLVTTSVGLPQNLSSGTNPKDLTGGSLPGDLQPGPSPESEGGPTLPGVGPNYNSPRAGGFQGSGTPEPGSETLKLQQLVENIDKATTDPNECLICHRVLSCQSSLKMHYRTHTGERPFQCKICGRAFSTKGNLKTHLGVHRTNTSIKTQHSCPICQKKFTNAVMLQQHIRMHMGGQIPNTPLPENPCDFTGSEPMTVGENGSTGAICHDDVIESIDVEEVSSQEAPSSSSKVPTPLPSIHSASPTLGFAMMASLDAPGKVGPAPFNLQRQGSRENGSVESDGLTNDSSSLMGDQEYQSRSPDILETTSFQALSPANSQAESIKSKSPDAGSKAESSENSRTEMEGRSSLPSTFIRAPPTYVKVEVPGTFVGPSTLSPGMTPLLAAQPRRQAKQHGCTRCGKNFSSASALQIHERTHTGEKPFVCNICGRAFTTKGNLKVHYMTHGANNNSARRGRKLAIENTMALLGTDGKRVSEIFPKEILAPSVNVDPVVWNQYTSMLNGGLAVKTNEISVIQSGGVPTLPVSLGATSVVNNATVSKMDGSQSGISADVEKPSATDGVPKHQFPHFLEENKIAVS
Notes: 8-mer, flanks averaged, mean of replicates
Oligonucleotide = ATCGTACG; result = 0.0815
Oligonucleotide = AATACGAT; result = 0.291
Oligonucleotide = ATCGTACC; result = -0.128
Oligonucleotide = CATTCTAG; result = 0.14
Oligonucleotide = AAACGGGA; result = -0.0481
Oligonucleotide = AGCCCCGA; result = -0.29
Oligonucleotide = AGTATTTA; result = 0.331
Oligonucleotide = ACATTCGG; result = -0.0313
Oligonucleotide = TGCCCGCA; result = -0.227
Oligonucleotide = CAATGCGG; result = -0.234
Oligonucleotide = ACGTAGAA; result = 0.0831
Oligonucleotide = CACGCCGC; result = -0.203
Oligonucleotide = CTCGAGAC; result = -0.0745
Oligonucleotide = AGATTAAG; result = 0.209
Oligonucleotide = CGTACCAC; result = -0.12
Oligonucleotide = GACGACTA; result = -0.0578
Oligonucleotide = AGTGAATA; result = 0.175
Oligonucleotide = TGATTCCA; result = 0.0571
Oligonucleotide = ATAAGGCG; result = 0.0727
Oligonucleotide = GTCCAGTA; result = -0.0445
Oligonucleotide = CATGTCCC; result = -0.145
Oligonucleotide = AGCGTGAT; result = -0.0199
Oligonucleotide = ACTCCCAT; result = 0.0834

Study 3 — technique: RNA Bind-n-Seq; form: RNA; matrix: in vitro; concentration: 365 nM; relative to: no-protein control; reading: higher = stronger binding; measurement: RBNS enrichment (R)
Target: RNA binding protein fox-1 homolog 2, RRM domain, GST-SBP tag (RBFOX2, Homo sapiens, UniProt O43251-10, residues 100-194)
Notes: natural RNA segment, single round, ends assumed
Constant ends, left off below: GGGAGUUCUACAGUCCGACGAUC … UGGAAUUCUCGGGUGCCAA
Construct (chain): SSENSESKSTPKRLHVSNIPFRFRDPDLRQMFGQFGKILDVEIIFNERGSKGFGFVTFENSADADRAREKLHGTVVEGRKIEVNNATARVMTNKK
Oligonucleotide = GCCAGGCAGUUGCAGCUGAUGAUGUAAAUAUUUUGUACAGUAGAUAAAUAAAUGUUUAAAAGAACUAGGAGUGAGUGGCUGCUUUAAAUGGAGAUUCAUGGCUUGACUGG; result = 0.994
Oligonucleotide = GAUGAUAUUCAGUCUGAUGUUCCGCAAUUUUAAAAGUUAUAAUAAAAUACCAUUUUUUUAAUCUGGAGGACAUUGAUAUAUGAAUUCUUAGAAUUUGCUAUUAAAAAGGG; result = 0.456
Oligonucleotide = UUCUUCUUCUUCCCAUUCCUGUCUGCCGCCUGAGGAGCGUCCGCCGCUGGAGGAGGCUUUGGUGCAUGUUGCUGUGAAGUCCUUCCGUGUGGCCACCCAGCCAGCUGGAG; result = 7.04
Oligonucleotide = GCAGAUAGUAAGGUACAACUGUGUUUUCUCAAUUGUCUCGAAGAACCAGAGUUCUUAAGUGGCCCAGUUGUGGAGCCAAGUCUAAGUCGUGUGGAGUCAGUGCUGACAUC; result = 0.475
Oligonucleotide = CAUGGUAGUGGGAACCAGACCAAUCACAAUGUUUUAUUGAAACAUAUUCCAUCGUUACAGGAUAGCGUUCGGUACACAGUGGCGGGUUUCUUUAGCUGCUGUGUUUAUUC; result = 0.461
Oligonucleotide = AGCUGGGCCCAGCCGGGCCGUGCCUGCUGGCACAGACGCCUUAACGCUGUGUGUAUGACUGUGUGACUGUGUGGGAGCCUGGACUGACAGAUAGGCCAAGGGCUACUCUC; result = 0.4
Oligonucleotide = GUAUGGCUGGGAAAUGGACUUAAGGCUUGGGCUUGAAUUGGUGGCUCCUACCUGUGAGGUCCCAUCGUGAGUCACUGGGAUUUGUGUUGCAUGGAAGGCAGUCUUUCCUG; result = 2.23
Oligonucleotide = GUGCGUCGCCAGGACUUCUCUGGGCUGUGUUUAAACGGCCCGCAUCUUAAUUUUUCUCCCUUCUUUCUUUUUUUGGCUUUGGGAAAAGCAUCAUUUUACCAAACAUACCG; result = 1.28
Oligonucleotide = GUUCUCCCUCAGCCCACUAGCCAAGAGCUACCAGCGAUGCUCAGGGAAGGCUUGAGCUGGGGUCCUCCUCUGCGGAGCUUGGAGAAGGUACCCAUCCUGGUCCUAUGCUG; result = 0.404
Oligonucleotide = GCCCAGAAGUGCCUUGGCUCCAGCCCUGUACCCCUUGGUACUGCCUCUGAACACUCUGGUUUCCCCACCCAACUGCGGCUAAGUCUCUUUUUCCCUUGGAUCAGCCAAGC; result = 0.402
Oligonucleotide = UAUACUUCCCUAACCUGGAUCCCUGCUCUGCAAUGAGGUGGCCGUGGUUACACCAUCAUCUACCCUCUAGCUAGGGAUGAGGUGGAGGUAAAAUGCUCCCUGUGAGUUUG; result = 0.252
Oligonucleotide = CCUGGGGGGGGCAGUGGCCCUCAGCUCUGCCCGCUGGAGCGGUUGAGUGCAGAAGGGUGCGCCUCUUCCCUCUACCCCCGCACCACCUGCUGUGUGCCAGCCUGAGACGG; result = 0.55

Study 4 — technique: RNA Bind-n-Seq; form: RNA; matrix: in vitro; concentration: not given; relative to: input RNA pool; reading: higher = stronger binding; measurement: bound/input enrichment
Target: RING finger protein unkempt homolog, zinc fingers 1-6, GST-SBP tag (UNK, Homo sapiens, UniProt Q9C0B0, residues 30-357)
Chain of UniProt Q9C0B0 (30-357, looked up): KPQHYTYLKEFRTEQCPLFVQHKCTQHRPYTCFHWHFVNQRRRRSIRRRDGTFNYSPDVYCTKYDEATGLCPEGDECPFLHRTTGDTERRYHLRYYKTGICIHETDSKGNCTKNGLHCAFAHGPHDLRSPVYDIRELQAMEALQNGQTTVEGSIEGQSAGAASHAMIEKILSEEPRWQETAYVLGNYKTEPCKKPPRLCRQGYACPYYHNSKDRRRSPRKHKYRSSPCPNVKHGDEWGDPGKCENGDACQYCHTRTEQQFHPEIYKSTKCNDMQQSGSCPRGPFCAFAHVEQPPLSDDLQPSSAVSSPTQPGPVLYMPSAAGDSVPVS
Notes: RNA with constant flanks, human-mouse chimeric sites, ends assumed
Constant ends, left off below: GGGAGUUCUACAGUCCGACGAUC … CAACAGAGGAUUGAGCAUCA
Oligonucleotide = CUCAUGGCUGCAGAAACAGGAAGUGGCAAAACUGGUGCAUUUAGUAUUCCCGUUAUCCAGAUAGUGUAUGAAACUCUGAAAGACCAACAGGAAGGAAAAAAAGGAAAAACAACUAUUAAA; result = 0.93 ratio
Oligonucleotide = CUGGCACUCUAUCAGAUAGAUUACUUUUUUAAUGUAGAUGUAAUUUUAAAAAUGAAUGGCUAGUUUACACGUUUAACUAGGGUUUUACUAUAUAUGUGUACAUAUGUAUAUAUAUAUAUA; result = 22.7 ratio
Oligonucleotide = UUUCUAUUGCAGCAAACGAUGCUAAGAAUUAAGGAUCCUAAGAAGUCCCUGGAUUUUUAUACGAGGGUUCUUGGACUGACCCUCCUGCAGAAGCUUGACUUCCCUGCUAUGAAGUUUUCG; result = 0.314 ratio
Oligonucleotide = AAAGUGGACUAUGGCGAGUACAUGGAUAAAAACAAUGUGAGGCGGCAAGCAACAACAAUCAUAGCUGAUAACAUUAUAUUUCUGAGUGACCAGACGAAAGAAAAGGCGUAGAAAGGAUGA; result = 1.75 ratio
Oligonucleotide = AGUUCCAAACCACCAUCAGAAAUGAAGGAUGAGACUACCAGACGAGCCAAAACAGCUGCGCUACAGAAAAGUAAACUUAACCUUGCAGAGUUCCUUAAUGAAGAUACAAGUUAAGAGAGC; result = 0.138 ratio
Oligonucleotide = ACCAUUUUCGCGGUUCAGGCUUUGUGUGUAGUUCACUUACGGUAUUAAAUUAUUAUUCUGCUUAGCUUAAAGUAAGGAUAAUUGCAUGAUUUAAGUAUACUGAAUGUUACUCUGAAACUU; result = 0.276 ratio
Oligonucleotide = CGGAGCCCCUCCCUCUCACAGGCCCAAGAUAUAACCCACCAGUGCCUUUUGUCUUCCUGUCAGCUCUGUCAAUCACGCCUGUCCUCUGUCCCUCUCACCAAGUGCCCAAAGUGGGGAGGG; result = 0.467 ratio
Oligonucleotide = GAUAAGAAAAGCUUGUUGGAGACCCGCUUGCAUGUCACUGGCAGAGACCUGAGGUGUCAAAUAGCUGAAACUUUCGGACUUCAAGAAAAUUACAUCAAGAUCGUAAUAAAUAAGAAACAG; result = 0.326 ratio
Oligonucleotide = ACACAAUAUGAGACCAACAGCAUGGACUUCAAAGUUGGGGCAGAUGGGACAGUCUUCGCCACCCGGGAGCUGCAGGUCCCCUCCGAGCAGGUGGCGUUUACCGUCACUGCGCGGGAAAGC; result = 0.188 ratio
Oligonucleotide = UGUAACUUAUCUGUAAAAAAGGUUUCUCCCCUACUGUCAAAAAAUAUGCAUGUAUAGUAAUUAGGACUUCAUUCCUCCAUGUUUUCUUCCCUUAUCUUACUGUCAUUGUCCUUAAACCUU; result = 1.25 ratio
Oligonucleotide = CAGACUGUGUCAUACUUUUUAGACAUUCACAUCAGACUUACAGAGCACCUGGCCACAUUCUAGGUUUGUGUUAUUUCUCAGCUAUGGAUAUGAUCAAAUGAGAACACUGCUUAACUAAUG; result = 0.558 ratio
